# Measurements collected from several papers.
# Parts stem from different laboratories: compare values within a part only.

# Set 1
# Target: Centromere-binding protein 1, full length, His-tagged (CBF1, Saccharomyces cerevisiae, UniProt P17106, residues 1-351)
# UniProt P17106, sequence (whole entry, looked up): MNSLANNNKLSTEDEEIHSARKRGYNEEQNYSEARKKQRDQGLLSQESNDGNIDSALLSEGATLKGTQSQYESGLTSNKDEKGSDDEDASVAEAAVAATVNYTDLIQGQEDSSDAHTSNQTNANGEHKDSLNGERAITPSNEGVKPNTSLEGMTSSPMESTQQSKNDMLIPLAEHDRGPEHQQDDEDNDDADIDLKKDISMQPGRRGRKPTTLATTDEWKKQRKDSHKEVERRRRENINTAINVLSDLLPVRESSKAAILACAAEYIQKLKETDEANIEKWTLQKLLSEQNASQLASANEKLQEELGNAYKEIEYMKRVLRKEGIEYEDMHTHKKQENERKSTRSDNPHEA
# Method: competition protein-binding microarray
# Molecule type: double-stranded DNA, one strand shown
# Sample: in vitro
# Concentration: 2 µM
# Setting: whole 60-bp probe, lowest competitor level
# With: Pho4 competitor, 0.05 µM
# Direction: higher = stronger binding
# All sequences stand within: … GTCTTGATTCGCTTGACGCTGCTG
Sequence,fluorescence intensity
AAAGCGGTAATTTGGTTAGTGGGTGCAGATATCTAT,84.7 a.u.
CGCTATGCCATCAGTGATGTGATGAGCAATGCCGGA,62.6 a.u.
CATGTATCTTATTGTTTCGTGATGGTGTAGATCCGG,95.2 a.u.
TGCGCAACAACTTGTCACTTAACTTTATGTCTAGAA,75.5 a.u.
CATACCCAACCTTGTCACCCAACTTAAGATATTTGT,78.8 a.u.
CAAAGTGAACCTGGACACGTTCTTGCCAGTGCTTTC,91.3 a.u.
CTGAACTAACACTCACACATGTAGAGGTCCCCGGGA,73.1 a.u.
GTCTTGTCTCATTGCGTAGTGGGTGTCCCCACTTCA,70.8 a.u.
CACAGTGTTCCGAGTCACGTGCTGTTTCAGTCCTCC,12500 a.u.
CTTTTTCGCGGGATTGTCGTGCTTTTCAACCATTTT,73.9 a.u.
TAGGTGTTAAGAAAGCACGTGCCGATAGGGGTTTAG,3250 a.u.
AGTGTAAGATGTGCTTTCGTGACTCGAGCGAAGGGG,91.4 a.u.
TTGTTGGAAAGAACCGTCGTGGGTATAACCAGACAA,74.1 a.u.
TACCAGAATTGTGAGAACATGACAAAACCAACTACG,104 a.u.
AAAAAAATTAGGGGACGCGTGGGTAGGGCCGGCTTT,70.3 a.u.
AAAAGTATACTCGGAAACGTGATGGAATACCTTAGG,328 a.u.
CATACCCAACCTTGCCAGGTGGGTGAAGATATTTGT,63.5 a.u.
CACCACCTTGCAGGTCCCGTGTAGGTAGGAGTCGCA,169 a.u.
GTCCGAGAACCCACCCTCGTGTGGAACTTCTTGAGC,69.8 a.u.

# Set 2
# Target: Ras GTPase-activating protein-binding protein 1, full length (G3BP1, Homo sapiens, UniProt Q13283)
# UniProt Q13283, sequence (whole entry, looked up): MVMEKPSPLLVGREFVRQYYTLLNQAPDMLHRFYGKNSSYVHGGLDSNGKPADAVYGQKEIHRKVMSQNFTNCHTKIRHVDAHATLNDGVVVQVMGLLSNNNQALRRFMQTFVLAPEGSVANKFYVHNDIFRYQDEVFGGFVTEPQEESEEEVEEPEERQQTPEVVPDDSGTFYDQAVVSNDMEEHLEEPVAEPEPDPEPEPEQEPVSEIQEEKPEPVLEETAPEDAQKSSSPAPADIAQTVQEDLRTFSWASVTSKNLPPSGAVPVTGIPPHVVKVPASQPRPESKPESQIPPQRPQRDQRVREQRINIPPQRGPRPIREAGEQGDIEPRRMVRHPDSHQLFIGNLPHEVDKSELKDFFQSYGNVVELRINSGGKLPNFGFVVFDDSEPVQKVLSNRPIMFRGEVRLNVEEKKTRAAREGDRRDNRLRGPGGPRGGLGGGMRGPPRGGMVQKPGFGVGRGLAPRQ
# Method: RNA Bind-n-Seq
# Molecule type: RNA
# Sample: in vitro
# Concentration: 200 nM
# Setting: whole 134-nt RNA, ends assumed
# With: 150 mM LiCl
# Relative to: input library
# Direction: higher = stronger binding
# Library: 7-deaza-guanosine replaces G
# All sequences stand within: GGGAGUUCUACAGUCCGACGAUC … UGGAAUUCUCGGGUGUCAAGG
Sequence,log2 enrichment
GUCCUGUGCUACACAUCGUAUGUACCGAAUCGGCCCCCCGGCCCCCCGGGCCCCCCGGGAAAGUAUUAUGUUACGCCGUUCGGAUCUGCA,-0.612
GUGCUACACAUCGUAUGUACCGAAUCGGGGUUUUUUUGGGGUUUUUUUGGGGAAAAAAAGGGGAAAGUAUUAUGUUACGCCGUUCGGAUC,1.23
CCUGUGCUACACAUCGUAUGUACCGAAUCGGGGAAAAAAGGGGAAAAAAGGGAAAAAAGGGAAAGUAUUAUGUUACGCCGUUCGGAUCUG,0.604
CAAGUCCUGUGCUACACAUCGUAUGUACCGAAUCGGUUUUUGGUUUUUGGAAAGGAAAGUAUUAUGUUACGCCGUUCGGAUCUGCACUUC,-0.437
UCCUCAAGUCCUGUGCUACACAUCGUAUGUACCGAAUCGGAGGGAGGGAGGGAAAGUAUUAUGUUACGCCGUUCGGAUCUGCACUUCCAG,0.0156
UAACUUUAGAUGAGGAUCUGAUGGAUAUGGCAGUGGACGUGGAUUUGGGGAUGGCUAUAAUGGGUAUGGAGGAGGACCUGGAGGUGGCAA,-0.178
GUCCUGUGCUACACAUCGUAUGUACCGAAUCGGUUUUUUGGGUUUUUUGGGUUUUUUGGAAAGUAUUAUGUUACGCCGUUCGGAUCUGCA,-0.949
UUUAAACUGAAGCCGCGGCCGAAAACGCCAAGAGAUUGAUGCUGUAGCUGCCCUGAGAUAACCAGGACUGUGGAAUCGGGAAGAGCUCAU,-2.19

# Set 3
# Target: Protein max, full length (MAX, Homo sapiens, UniProt P61244-2, residues 1-151)
# Method: protein-binding microarray
# Molecule type: double-stranded DNA, one strand shown
# Sample: in vitro
# Concentration: not given
# Setting: k-mer, scored over probes, only values ≥0.25
# Direction: higher = stronger binding
Sequence,E-score
ACGCGCGA,0.251
ACCCCACG,0.281
CACGCGTA,0.434
CATGGGCG,0.328
CATTGCAC,0.319
TCACATGA,0.423
CATCATGC,0.326
GCTAACAC,0.266
CATGCAAC,0.393
CCTCACGC,0.33
GGCACGCC,0.346
ACATGACC,0.328
ACATGAGC,0.312
CTGCGTGC,0.301
CACTCCCC,0.277
GGTCACGA,0.295
AGCACGAG,0.425
ATCCCGTG,0.293
CCATGCCG,0.404
CACGTTAG,0.353
CGCCATGC,0.407

# Set 4
# Target: RING finger protein unkempt homolog, zinc fingers 1-6, GST-SBP tag (UNK, Homo sapiens, UniProt Q9C0B0, residues 30-357)
# Method: RNA Bind-n-Seq
# Molecule type: RNA
# Sample: in vitro
# Concentration: not given
# Setting: RNA with constant flanks, ends assumed
# Relative to: input RNA pool
# Direction: higher = stronger binding
# All sequences stand within: GGGAGUUCUACAGUCCGACGAUC … CAACAGAGGAUUGAGCAUCA
# Construct (chain): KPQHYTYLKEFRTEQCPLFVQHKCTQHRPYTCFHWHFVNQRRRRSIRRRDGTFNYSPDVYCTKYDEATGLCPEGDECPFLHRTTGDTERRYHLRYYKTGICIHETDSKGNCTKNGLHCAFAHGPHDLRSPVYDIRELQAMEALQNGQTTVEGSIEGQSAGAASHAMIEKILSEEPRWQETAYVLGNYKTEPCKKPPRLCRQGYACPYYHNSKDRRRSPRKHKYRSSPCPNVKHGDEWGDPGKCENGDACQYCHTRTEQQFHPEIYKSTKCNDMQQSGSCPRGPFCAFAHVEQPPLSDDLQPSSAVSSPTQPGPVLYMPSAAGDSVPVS
Sequence,bound/input enrichment
CUUGGCCAGCUCCACCACUGUCAGGUUCUCCAGUUCUGACUGGGGUUGUGGUGAUGGCGGCCGGUGGGAAGAUCCACCCUGGCUCAGGAGCCUGACUUGACACUGGUUCUUUCAGCCCUA,0.0855 ratio
AAUGUUACUUCUAUGAUAAACUUAAAGACCAUUGCUUCAUCAGCAGAUCCUAAAAAUGUCCGUAUACCAUCUUCUGAAGCUUUAUCUUCGGAUCCUUCCUACAACAAAGAAAAACACAUU,0.182 ratio
GAUGUGGCAUGGUUCCUGACGGAAACUUCCCCCUUCAUGUGGUCGAAUCUGGGCAUUGGCCCCGCAAUUUCUCUGUCUGUGGUUGGAGCAGCCUGGGGAAUCUAUAUAACCGGCUCAUCC,0.0809 ratio
CUUAUGCCCUCCAGUCUGCAGACCCCUCAGCCCCAGGAGCAGAAUGGGAUUUUAGACUGGCUCCGGAAGCUGCGCUUGCACAAGUAUUACCCUGUCUUUAAACAGCUCACCAUGGAGAAG,0.197 ratio
CCAUCACAAAGAACCAAUGGCUCGUAACACCCAGCAGGGAAUAUGCUACCAAGACAAGAAUCCGGACUCACCGUGGGAAAACUGGACAAGAACUGAAAGAGGCAGCCUUGGAACCAUCAA,0.179 ratio
GAUAUAGAAGUGAGACAUGCACUCAACUAUAAUCAGAGACAAUUGAAAGAACUGAAAGACCGUAAAACUGAUCGACUAAAAAGAUUUGGUCCUCAUGUUCCAGCUCUUCUGGAAGCAAUA,0.167 ratio
UCUGUUCGGAACCCCAGAGCACGAGUAGUAGUCUUAAGAGUAAAGCUUUCCAGUUUGAAUUCCGAUGAUCACGCAAAGAAGAAAUUAAUUAAACUUGUAGGAGAGCGAUACUGCAAGACC,0.38 ratio
GCUUAUAAAAUCAAAUAUCCAGAGAACUUCUUUCUCUUAAGAGGAAACCAUGAGUGUGCCCGCAUCAAUCGCAUUUAUGGAUUCUAUGAUGAAUGCAAACGAAGAUUUAAUAUUAAAUUG,0.251 ratio

# Excerpt of the above (set 3):
Sequence,E-score
GCTAACAC,0.266
CATGCAAC,0.393
CCTCACGC,0.33
GGCACGCC,0.346
ACATGACC,0.328
ACATGAGC,0.312
CTGCGTGC,0.301
